Results collected from several papers.
A part holds a random share of what one study measured.

Series 1 — method: RNA Bind-n-Seq; molecule type: RNA; sample: in vitro; tested at: 365 nM; relative to: no-protein control; reading: higher = stronger binding
Target: RNA binding protein fox-1 homolog 2, RRM domain, GST-SBP tag (RBFOX2, Homo sapiens, UniProt O43251-10, residues 100-194)
Setting: natural RNA segment, single round, ends assumed
All sequences stand within: GGGAGUUCUACAGUCCGACGAUC … UGGAAUUCUCGGGUGCCAA
Residues (chain): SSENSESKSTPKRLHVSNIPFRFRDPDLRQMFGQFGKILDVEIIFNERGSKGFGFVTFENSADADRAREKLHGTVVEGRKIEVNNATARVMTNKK
| Sequence | RBNS enrichment (R) |
| --- | --- |
| UUGACACGGGUCCCUGUUCGAGAAUUUCCAGUUAGCCCCAGAAGAGACUGGUUCUCCUGACCCCCACCCGAGAGCGAGAGCGCCAAGUGCAGGGCCUUGUGUUGUGUGGU | 0.372 |
| GCUCAUCACCCUAGGUUCUACAGGAAAUACAGAGAUGAACAACUUUGCCUUCAAAAAUGUGCUGCCUAGAAACAGACCUGCAUUCAACCAACUGUAAUGCAGGAUUGGAC | 0.268 |
| AUUCAAACUGACCUGCAUCCAUCCAAAACAAAUUCCUCCUUCAACCUUAUUUUUACUUGAAAUUUGCUAGAAGAAAUAGCAAACCGAAAUUUGUUUUAUGCAUGAGUUAA | 5.82 |
| UGGGGCUGAGGAACUGACGUGGAGCGGGGUAUGAAGAGCUUGCUUUGAUUUACAGCAAGUAGAUAAAUAUUUGACUUGCAUGAAGAGAAGCAAUUUUGGGGAAGGGUUUG | 2.96 |
| GAAAAAAAGAAAAAUAUAUUGUCCAUACUGUAAAUAAGUGUAUGCUUAUUUAUUUGGGGGGAAAACUAUACAUUAAAGGACCUUUGUCCUAAAGCUCUCUCCCAGGCCAC | 0.368 |
| AUACCCCCUAGCAAACUUGGCCCUCUCCAUCUGUUCUGGGACUCUAUACUUCCCUAACCUGGAUCCCUGCUCUGCAAUGAGGUGGCCGUGGUUACACCAUCAUCUACCCU | 0.523 |
| GAGAUGUCUGGAAGGGUUACUUAGCCAAAUUUUACUCAAGCCAAUUAGGAGCUGAUAUUAUCAGUUGGAAUUAAGAGAACUCCAGAGGUUUCCAUUUCAAACAAAAUUUU | 0.606 |
| AACUCUUUUGGUGUCAUUGGAUGUUUCAUUUUUGACACUAAUUUUUUCUGGACAAACUCUUUAUGUGUUUUUCCCAAGAAUAGUUAUCUACUUCCUGGAGGCAAAAUCCU | 0.368 |
| GGUGUUAUGUAUAAUGCUUUGUUAAAGAACCCCCUUUCCGUGCCACUGGUGAAUAGGGAUUAAUGAAUGGGAAGAGUUCAGUCAGACCAGUAAGCCCUUCUGGGUUUGAG | 0.867 |
| CUAAAAUAAUCGUCAGUCUUAAGAGUAAAGACAGCGAAACUGCACACUUAUAAGUUCUUUUCAGCUUCUACAAUAAAGAAAAGUUCAGAAAUGCUUUCAGUUACCAAAGU | 0.304 |
| CAGCGCCUGGUUGCCUUUCUCCUGUGUAUGUGUAAAUUCCUUAAUAAAUAUUGCAGGGAAAGACCCUUUUGCUCGGCUGUCACUGUGUUACUCUUGGAAGACAGUGAGAC | 1.13 |
| CUGCAACUGCUCAGCUCUGGUCCAGGCCCUGUGGCAGGACACACAUGGUGAGCCUAGCCCUGGGACAUCAGGAGACUGGGCUCUGGCUCUGUUCGGCCUUUGGGUGUGUG | 0.405 |

Series 2 — method: RNA Bind-n-Seq; molecule type: RNA; sample: in vitro; tested at: 200 nM; setting: whole 134-nt RNA, ends assumed; added: 150 mM KCl; relative to: input library; reading: higher = stronger binding
Target: Fragile X messenger ribonucleoprotein 1, C-terminal low-complexity region (Fmr1, Mus musculus, UniProt P35922)
All sequences stand within: GGGAGUUCUACAGUCCGACGAUC … UGGAAUUCUCGGGUGUCAAGG
| Sequence | log2 enrichment |
| --- | --- |
| UAACUUUAGAGGAGGAUCUGAUGGAUAUGGCAGUGGACGUGGAUUUGGGGAUGGCUAUAAUGGGUAUGGAGGAGGACCUGGACGUGGCAA | 0.0332 |
| ACCAUGCAGGUGGGCAUCUUGGGGAAGUGGGGCAAGGGGGGGAUAGGGAGGGGGGUAACACUUUGGGAACAGGUGGUCCCAGGUCGUUUC | 0.813 |
| CUGUGCUACACAUCGUAUGUACCGAAUCGGGGAAAAAGGGGUUUUUGGGGUUUUUUUGGGGAAAGUAUUAUGUUACGCCGUUCGGAUCUG | 0.000127 |
| GUCCUGUGCUACACAUCGUAUGUACCGAAUCGGUUUUUUGGUUUUUUGGGUUUUUUGGGAAAGUAUUAUGUUACGCCGUUCGGAUCUGCA | -0.687 |
| CCUCAAGUCCUGUGCUACACAUCGUAUGUACCGAAUCGGGCGGCGGGCGGGGAAAGUAUUAUGUUACGCCGUUCGGAUCUGCACUUCCAG | 0.783 |
| AGUCCUGUGCUACACAUCGUAUGUACCGAAUCGGUUUUGGGGUUUUGGGUUUUGGGGAAAGUAUUAUGUUACGCCGUUCGGAUCUGCACU | 0.104 |
| UCAAGUCCUGUGCUACACAUCGUAUGUACCGAAUCGGUUUGGUUUGGUUUGGGGAAAGUAUUAUGUUACGCCGUUCGGAUCUGCACUUCC | -0.368 |
| CAAGUCCUGUGCUACACAUCGUAUGUACCGAAUCGGGGAAAGGAAAGGGGAAAGGGAAAGUAUUAUGUUACGCCGUUCGGAUCUGCACUU | 0.47 |
| CAAGUCCUGUGCUACACAUCGUAUGUACCGAAUCGGUUUUUGGAAAAAAAGGAGGAAAGUAUUAUGUUACGCCGUUCGGAUCUGCACUUC | -0.692 |
| UCCUCAAGUCCUGUGCUACACAUCGUAUGUACCGAAUCGGCGGCGGGGCGGAAAGUAUUAUGUUACGCCGUUCGGAUCUGCACUUCCAGC | -0.109 |

Series 3 — method: protein binding microarray; molecule type: double-stranded DNA, one strand shown; sample: in vitro; tested at: not given; relative to: not given; reading: higher = stronger binding
Target: Histone acetyltransferase KAT6A, both winged helices, GST fusion (KAT6A, Homo sapiens, UniProt Q92794, residues 1-181)
Setting: 8-mer, flanks averaged, mean of 2 arrays, mostly near background
Residues (chain): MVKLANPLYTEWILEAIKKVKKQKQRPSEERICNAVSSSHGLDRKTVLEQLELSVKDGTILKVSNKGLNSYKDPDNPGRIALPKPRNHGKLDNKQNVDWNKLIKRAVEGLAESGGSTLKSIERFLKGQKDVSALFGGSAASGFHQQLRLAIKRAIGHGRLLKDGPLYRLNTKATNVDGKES
| Sequence | E-score |
| --- | --- |
| CCAGGAGG | -0.106 |
| GCTTTATA | 0.0608 |
| GTGTGCAA | -0.183 |
| TAATTAAA | -0.0659 |
| ACGCTGCA | 0.0926 |
| GGTTCTAC | -0.0249 |
| CGGACCGC | 0.201 |
| GGACCGCA | 0.0926 |
| CGGTTAAG | 0.125 |
| CCGTCCCA | 0.00675 |
| ACAACTAA | -0.0557 |
| CCTCATAC | -0.179 |
| GTCTTCCA | -0.208 |
| AGTCGATA | -0.183 |
| AATTGTGC | -0.0331 |
| AGTCCGCC | 0.11 |
| CAAACCCC | -0.073 |
| TGGTGCAA | -0.106 |
| AGTTCACG | 0.0231 |
| CGCCCCTC | 0.104 |
| CAAATCGC | 0.0027 |
| ACTTGATC | -0.0537 |
| ATGATCGC | 0.223 |
| CTCCGCGA | 0.0982 |
| AACAAAAA | -0.135 |

Series 4 — method: universal PBM; molecule type: double-stranded DNA, one strand shown; sample: in vitro; tested at: not given; reading: higher = stronger binding
Target: Sal-like protein 4, full length isoform B (SALL4, Homo sapiens, UniProt Q9UJQ4-2, residues 1-616)
Setting: 8-mer, flanks averaged, mean of replicates
| Sequence | E-score |
| --- | --- |
| CTCAAGAC | -0.0965 |
| GCGACTAA | 0.0623 |
| TAACTGTA | 0.267 |
| ATTATGCC | 0.276 |
| CCACTTTC | 0.017 |
| AATTTAGG | 0.216 |
| CTCAGATA | 0.0931 |
| CCGGACCA | -0.319 |
| CGTTGGCA | -0.0592 |
| CTCAAGTA | 0.148 |
| ACCATTGC | 0.0194 |
| CATGTGCA | 0.0701 |
| GTTATGAA | 0.427 |
| GGCCCTGA | -0.198 |
| AAAGACGC | -0.0662 |
| AGAATGAT | 0.225 |
| CTGGCGGA | -0.221 |
| ACTCTGTA | 0.0987 |
| CCTGCCAA | -0.11 |
| CCCAATCA | -0.0726 |
| ATGGCGAA | 0.0602 |
| ATCGAGGA | -0.00501 |

Repeated from above (series 2):
| Sequence | log2 enrichment |
| --- | --- |
| UAACUUUAGAGGAGGAUCUGAUGGAUAUGGCAGUGGACGUGGAUUUGGGGAUGGCUAUAAUGGGUAUGGAGGAGGACCUGGACGUGGCAA | 0.0332 |
| ACCAUGCAGGUGGGCAUCUUGGGGAAGUGGGGCAAGGGGGGGAUAGGGAGGGGGGUAACACUUUGGGAACAGGUGGUCCCAGGUCGUUUC | 0.813 |
| CUGUGCUACACAUCGUAUGUACCGAAUCGGGGAAAAAGGGGUUUUUGGGGUUUUUUUGGGGAAAGUAUUAUGUUACGCCGUUCGGAUCUG | 0.000127 |
| GUCCUGUGCUACACAUCGUAUGUACCGAAUCGGUUUUUUGGUUUUUUGGGUUUUUUGGGAAAGUAUUAUGUUACGCCGUUCGGAUCUGCA | -0.687 |
| CCUCAAGUCCUGUGCUACACAUCGUAUGUACCGAAUCGGGCGGCGGGCGGGGAAAGUAUUAUGUUACGCCGUUCGGAUCUGCACUUCCAG | 0.783 |
| AGUCCUGUGCUACACAUCGUAUGUACCGAAUCGGUUUUGGGGUUUUGGGUUUUGGGGAAAGUAUUAUGUUACGCCGUUCGGAUCUGCACU | 0.104 |
| UCAAGUCCUGUGCUACACAUCGUAUGUACCGAAUCGGUUUGGUUUGGUUUGGGGAAAGUAUUAUGUUACGCCGUUCGGAUCUGCACUUCC | -0.368 |
| CAAGUCCUGUGCUACACAUCGUAUGUACCGAAUCGGGGAAAGGAAAGGGGAAAGGGAAAGUAUUAUGUUACGCCGUUCGGAUCUGCACUU | 0.47 |
| CAAGUCCUGUGCUACACAUCGUAUGUACCGAAUCGGUUUUUGGAAAAAAAGGAGGAAAGUAUUAUGUUACGCCGUUCGGAUCUGCACUUC | -0.692 |
